Assay results from different studies.
A part holds a random share of what one study measured. Changes are numbered by the printed parent chain.
Sequence of UniProt P34969 (whole entry, looked up): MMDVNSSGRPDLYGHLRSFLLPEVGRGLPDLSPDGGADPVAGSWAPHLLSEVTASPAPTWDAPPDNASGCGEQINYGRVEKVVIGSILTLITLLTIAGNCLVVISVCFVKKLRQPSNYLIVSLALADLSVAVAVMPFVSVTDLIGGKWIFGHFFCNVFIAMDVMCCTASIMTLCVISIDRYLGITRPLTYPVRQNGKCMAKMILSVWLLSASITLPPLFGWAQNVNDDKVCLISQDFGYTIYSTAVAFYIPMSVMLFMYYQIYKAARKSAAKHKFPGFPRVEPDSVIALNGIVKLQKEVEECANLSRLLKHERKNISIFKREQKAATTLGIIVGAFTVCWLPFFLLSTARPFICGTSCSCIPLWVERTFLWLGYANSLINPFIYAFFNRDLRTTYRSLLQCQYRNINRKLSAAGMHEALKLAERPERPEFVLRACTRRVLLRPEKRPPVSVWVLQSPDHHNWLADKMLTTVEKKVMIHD

Sample 1
Target: UDP-N-acetylglucosamine--peptide N-acetylglucosaminyltransferase 110 kDa subunit (OGT, Homo sapiens, UniProt O15294)
Observed: binding
Technique: phage display NGS
Molecule type: peptide
Relative to: input library
Residues (O15294 1-1046): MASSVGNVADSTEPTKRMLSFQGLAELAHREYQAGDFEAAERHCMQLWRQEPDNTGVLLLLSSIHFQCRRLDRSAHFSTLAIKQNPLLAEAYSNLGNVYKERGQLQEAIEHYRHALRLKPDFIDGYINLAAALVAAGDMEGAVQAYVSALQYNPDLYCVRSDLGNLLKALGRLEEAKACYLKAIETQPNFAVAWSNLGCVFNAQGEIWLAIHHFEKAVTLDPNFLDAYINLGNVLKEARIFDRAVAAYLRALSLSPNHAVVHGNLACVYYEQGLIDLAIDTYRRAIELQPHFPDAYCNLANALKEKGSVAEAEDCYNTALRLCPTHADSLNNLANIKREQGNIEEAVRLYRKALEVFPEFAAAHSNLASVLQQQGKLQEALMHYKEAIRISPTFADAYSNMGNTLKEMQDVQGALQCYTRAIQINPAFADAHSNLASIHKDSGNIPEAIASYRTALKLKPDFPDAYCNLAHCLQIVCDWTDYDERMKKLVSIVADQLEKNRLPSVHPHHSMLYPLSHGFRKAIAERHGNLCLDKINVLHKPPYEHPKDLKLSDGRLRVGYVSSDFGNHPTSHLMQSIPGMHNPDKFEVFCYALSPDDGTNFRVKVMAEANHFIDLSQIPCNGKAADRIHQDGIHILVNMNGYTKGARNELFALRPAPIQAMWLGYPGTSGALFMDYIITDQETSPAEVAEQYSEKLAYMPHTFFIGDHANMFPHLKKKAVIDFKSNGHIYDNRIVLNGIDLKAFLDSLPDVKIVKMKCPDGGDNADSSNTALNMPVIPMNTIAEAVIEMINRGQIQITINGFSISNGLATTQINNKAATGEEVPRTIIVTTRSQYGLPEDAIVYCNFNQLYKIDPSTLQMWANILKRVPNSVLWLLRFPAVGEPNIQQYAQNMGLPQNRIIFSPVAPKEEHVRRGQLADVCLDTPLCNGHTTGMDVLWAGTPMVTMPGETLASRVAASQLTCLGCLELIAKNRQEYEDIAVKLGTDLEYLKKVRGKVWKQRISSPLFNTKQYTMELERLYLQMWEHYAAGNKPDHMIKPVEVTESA
| Sequence | minimum log2 enrichment ratio |
| --- | --- |
| WGSSPYRPFYFIDIQ | 1.54 |
| YSLHIAQHHDAYTIH | 2.79 |
| SRPIKWVPQYQIVI | 1.54 |
| VTPTSPFYPQYQIIF | 4.07 |
| MWQHGPMGMTSHYP | 1.62 |
| ISVPVFGKYMPFYQI | 3.02 |
| NRIFSPAYQINTYI | 1.12 |
| TYRHSDHPVSSFAHV | 2.14 |

Sample 2
Target: tungstate, free oxyanion
Technique: microfluidic competitive inhibition
Medium: in vitro, cell-free expressed
Tested at: not given
Notes: derived from inhibition constants, unchanged parent 2230 nM
Reading: lower = stronger binding
Starting sequence: PafA, mature enzyme, eGFP fusion (Elizabethkingia meningoseptica, UniProt Q9KJX5); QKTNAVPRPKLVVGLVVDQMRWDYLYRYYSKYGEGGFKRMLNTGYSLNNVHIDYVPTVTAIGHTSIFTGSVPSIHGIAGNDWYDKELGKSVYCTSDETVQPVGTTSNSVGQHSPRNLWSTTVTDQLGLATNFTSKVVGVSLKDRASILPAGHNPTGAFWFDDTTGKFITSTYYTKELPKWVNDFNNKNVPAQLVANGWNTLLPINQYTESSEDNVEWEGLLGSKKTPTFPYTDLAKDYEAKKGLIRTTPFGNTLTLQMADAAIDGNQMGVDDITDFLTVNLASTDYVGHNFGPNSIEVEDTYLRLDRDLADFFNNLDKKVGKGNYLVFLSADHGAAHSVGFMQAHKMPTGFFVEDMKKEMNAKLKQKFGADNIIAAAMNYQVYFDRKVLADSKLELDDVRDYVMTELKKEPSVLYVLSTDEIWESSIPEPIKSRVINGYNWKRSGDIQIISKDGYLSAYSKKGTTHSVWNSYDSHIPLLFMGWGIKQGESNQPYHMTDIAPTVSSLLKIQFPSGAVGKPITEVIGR
| Variant | oxyanion analog dissociation constant [nM] |
| --- | --- |
| V122G | 1070 |
| I245G | 649 |
| D446V | 1980 |
| Y439G | 1230 |
| R307V | 1820 |
| Q19V | 3270 |
| T3V | 2400 |
| L303V | 2210 |

Sample 3
Target: CCND2, cyclin fold, Cln2 fusion (human)
Technique: yeast growth competition, sequencing
Medium: yeast
Notes: weak parent motif
Relative to: not given
Reading: higher = stronger binding
Starting sequence: viral docking peptide; PTARRRLLHDLDT; partner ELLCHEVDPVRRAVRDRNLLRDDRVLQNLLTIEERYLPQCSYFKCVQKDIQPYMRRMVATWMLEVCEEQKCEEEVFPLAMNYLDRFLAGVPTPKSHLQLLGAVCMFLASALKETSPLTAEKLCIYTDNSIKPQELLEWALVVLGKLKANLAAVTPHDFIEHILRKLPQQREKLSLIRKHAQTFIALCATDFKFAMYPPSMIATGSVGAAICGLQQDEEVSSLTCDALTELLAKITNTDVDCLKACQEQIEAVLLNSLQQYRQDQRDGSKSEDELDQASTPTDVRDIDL
| Variant | normalised enrichment score |
| --- | --- |
| PTARRRLLHDLDA [T13A] | 0.104 |
| PTARRALLHDLDT [R6A] | 0.444 |
| PTARRRLLHALDT [D10A] | -0.174 |
| PTARRRLLHDADT [L11A] | 0.133 |
| PAARRRLLHDLDT [T2A] | 0.0424 |

Further values, each from its own experiment
| Compound | target | test | setting | measurement | value |
| --- | --- | --- | --- | --- | --- |
| Cn1cncc1[C@@](O)(COc1ccc(C#N)cc1-c1ccc(OC(F)(F)F)cc1)c1ccc(C#N)cc1 | 5-hydroxytryptamine receptor 7 (HTR7, Homo sapiens, UniProt P34969) | ligand displacement | 10 µM | inhibition | 15% |

Repeated from above (sample 1):
| Sequence | minimum log2 enrichment ratio |
| --- | --- |
| YSLHIAQHHDAYTIH | 2.79 |
| SRPIKWVPQYQIVI | 1.54 |
